Experimental data pooled from the literature.
Compare with care: the assays were run in different laboratories. Numbers after ± are the reported error. In brackets after ≈: the same amount, converted by molar mass.
UniProt P45984, sequence (whole entry, looked up): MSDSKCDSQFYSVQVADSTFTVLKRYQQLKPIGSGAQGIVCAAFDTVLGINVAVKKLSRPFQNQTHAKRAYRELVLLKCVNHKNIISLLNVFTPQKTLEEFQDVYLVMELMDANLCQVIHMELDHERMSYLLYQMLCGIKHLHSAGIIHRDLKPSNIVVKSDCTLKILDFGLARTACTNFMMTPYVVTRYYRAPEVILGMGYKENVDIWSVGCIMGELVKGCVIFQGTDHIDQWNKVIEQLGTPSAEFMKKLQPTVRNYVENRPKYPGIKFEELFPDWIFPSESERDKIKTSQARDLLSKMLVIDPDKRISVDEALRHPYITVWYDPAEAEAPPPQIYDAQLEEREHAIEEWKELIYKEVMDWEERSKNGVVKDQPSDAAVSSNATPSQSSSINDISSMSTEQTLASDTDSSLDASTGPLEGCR

| Structure (SMILES) | tested on | test | system | conditions | endpoint | value |
| --- | --- | --- | --- | --- | --- | --- |
| Cc1ccc(-c2cc(-c3ccc(OCc4ccccc4)cc3)nc3c(N=Nc4ccc(F)cc4)c(N)nn23)cc1 | Bacillus pumilus | broth microdilution | MTCC 2296 | – | MIC | 31.3 µg/mL (≈ 59.2 µM) |
| O=C(O)c1cn(Cc2ccc(C(F)(F)F)cc2)c2ccc(Oc3ccccc3)cc2c1=O | MCF10 | – | – | 72 h | CC50 | 32.5 ± 8.36 µM |
| CCOc1c([C@H](C)n2nc(C)c3c(N)ncnc32)cc(Cl)c(F)c1[C@@H]1CNC(=O)C1 | – | – | patients, monotherapy | oral, 10 mg once daily, cycle 1 day 15 | half-life | 9.9 ± 1.9 h |
| COc1cc(/C=N/NC(=S)N/N=C/c2ccc(Cl)cc2)ccc1Oc1ccnc2cc(Cl)ccc12 | human lysosomal acid alpha-glucosidase | inhibitor | – | added: pNPG substrate | IC50 | 10.8 ± 0.74 µg/mL (≈ 20.6 µM) |
| COc1cc(-c2nc3ccccc3c(=O)n2Nc2ccc([N+](=O)[O-])cc2[N+](=O)[O-])ccc1OCc1cn(CC(=O)Nc2ccccc2[N+](=O)[O-])nn1 | mushroom tyrosinase | enzyme activity | – | 40 µM, added: L-DOPA | inhibition | 20.3 ± 1.02% |
| O=C(Nc1cc(-c2ccc(Cl)cc2)[nH]n1)C1CCCCC1 | MAPK9 (Homo sapiens, UniProt P45984) | enzyme activity, Dundee kinase panel | – | 10 µM | remaining activity | 87% |
| Nc1nn2c(-c3ccc(Cl)cc3Cl)cc(-c3ccc(OCc4ccccc4)cc3)nc2c1N=Nc1ccc(F)cc1 | Enterococcus faecalis | broth microdilution | MTCC 0459 | – | MBC | 125 µg/mL (≈ 214 µM) |
| COc1cc(/C=N/NC(=S)N/N=C/c2ccc(Br)s2)ccc1Oc1ccnc2cc(Cl)ccc12 | human lysosomal acid alpha-glucosidase | inhibitor | – | added: pNPG substrate | IC50 | 13.5 ± 0.36 µg/mL (≈ 23.4 µM) |
